Experimental data collected from several papers.
Lines come from different studies, so protocols differ. Numbers after ± are the reported error.

Protein sequences, listed by entry. Tags and fused reporters are not part of them. Residues count along the entry.
UniProt Q9Y5Y6, 615-854 F708A limits assumed: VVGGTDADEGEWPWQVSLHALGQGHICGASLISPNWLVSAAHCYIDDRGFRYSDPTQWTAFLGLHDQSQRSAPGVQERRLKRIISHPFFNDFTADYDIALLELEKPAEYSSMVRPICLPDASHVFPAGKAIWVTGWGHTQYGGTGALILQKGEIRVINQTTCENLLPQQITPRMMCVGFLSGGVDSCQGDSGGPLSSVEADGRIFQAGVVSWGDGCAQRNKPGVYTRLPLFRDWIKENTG
UniProt P07237, 18-508 limits assumed: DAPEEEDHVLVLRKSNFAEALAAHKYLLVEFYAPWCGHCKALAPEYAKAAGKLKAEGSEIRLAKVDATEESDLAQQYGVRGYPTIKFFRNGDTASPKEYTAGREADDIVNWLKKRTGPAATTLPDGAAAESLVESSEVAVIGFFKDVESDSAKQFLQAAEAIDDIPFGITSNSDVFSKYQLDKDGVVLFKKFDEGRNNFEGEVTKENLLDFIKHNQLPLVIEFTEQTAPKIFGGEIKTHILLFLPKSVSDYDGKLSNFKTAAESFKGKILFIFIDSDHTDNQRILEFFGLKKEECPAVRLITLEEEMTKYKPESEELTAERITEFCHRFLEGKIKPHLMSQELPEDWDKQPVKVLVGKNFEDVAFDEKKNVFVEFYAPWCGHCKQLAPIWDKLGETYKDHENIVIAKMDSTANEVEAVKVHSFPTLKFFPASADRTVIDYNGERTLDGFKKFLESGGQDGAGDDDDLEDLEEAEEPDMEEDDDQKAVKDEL
UniProt P09252, whole entry: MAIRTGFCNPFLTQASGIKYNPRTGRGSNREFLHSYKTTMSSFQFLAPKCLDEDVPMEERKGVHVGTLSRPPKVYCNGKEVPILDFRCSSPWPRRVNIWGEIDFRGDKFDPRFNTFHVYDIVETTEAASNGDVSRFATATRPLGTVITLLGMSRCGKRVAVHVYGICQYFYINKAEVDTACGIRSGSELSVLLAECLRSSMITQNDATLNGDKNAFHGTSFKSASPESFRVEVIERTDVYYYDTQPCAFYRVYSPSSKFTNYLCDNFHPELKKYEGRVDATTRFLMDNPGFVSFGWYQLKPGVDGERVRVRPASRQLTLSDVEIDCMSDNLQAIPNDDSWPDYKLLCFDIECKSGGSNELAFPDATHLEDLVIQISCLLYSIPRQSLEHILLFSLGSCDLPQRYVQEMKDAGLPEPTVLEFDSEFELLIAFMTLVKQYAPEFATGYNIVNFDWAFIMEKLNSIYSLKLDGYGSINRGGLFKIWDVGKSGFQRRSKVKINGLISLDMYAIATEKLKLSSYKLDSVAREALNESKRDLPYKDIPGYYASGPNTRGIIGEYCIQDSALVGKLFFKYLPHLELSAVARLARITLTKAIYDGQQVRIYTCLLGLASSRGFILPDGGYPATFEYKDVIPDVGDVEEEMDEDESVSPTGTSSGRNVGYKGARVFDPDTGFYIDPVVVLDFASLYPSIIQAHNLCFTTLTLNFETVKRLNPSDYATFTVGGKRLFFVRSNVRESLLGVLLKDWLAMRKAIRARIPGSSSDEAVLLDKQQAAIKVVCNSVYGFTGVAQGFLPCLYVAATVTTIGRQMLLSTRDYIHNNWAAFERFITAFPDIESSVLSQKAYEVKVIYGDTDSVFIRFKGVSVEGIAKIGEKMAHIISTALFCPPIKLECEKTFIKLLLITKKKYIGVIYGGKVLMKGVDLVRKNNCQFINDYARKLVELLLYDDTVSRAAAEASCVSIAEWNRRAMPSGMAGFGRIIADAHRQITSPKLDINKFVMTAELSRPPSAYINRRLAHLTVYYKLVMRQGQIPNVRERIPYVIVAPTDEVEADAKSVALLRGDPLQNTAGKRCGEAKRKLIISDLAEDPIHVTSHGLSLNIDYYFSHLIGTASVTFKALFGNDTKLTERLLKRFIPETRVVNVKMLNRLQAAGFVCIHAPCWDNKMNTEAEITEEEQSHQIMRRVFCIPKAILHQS
UniProt P14340, 281-571 limits assumed: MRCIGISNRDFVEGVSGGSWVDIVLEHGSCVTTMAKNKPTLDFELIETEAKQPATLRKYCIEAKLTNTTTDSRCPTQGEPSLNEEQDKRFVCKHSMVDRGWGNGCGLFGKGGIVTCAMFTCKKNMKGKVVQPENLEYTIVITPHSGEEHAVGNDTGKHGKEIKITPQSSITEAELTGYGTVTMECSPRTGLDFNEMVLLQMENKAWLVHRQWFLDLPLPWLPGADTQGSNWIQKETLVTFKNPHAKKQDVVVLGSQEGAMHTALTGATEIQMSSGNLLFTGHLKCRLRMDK
UniProt P05556, 21-798 limits assumed: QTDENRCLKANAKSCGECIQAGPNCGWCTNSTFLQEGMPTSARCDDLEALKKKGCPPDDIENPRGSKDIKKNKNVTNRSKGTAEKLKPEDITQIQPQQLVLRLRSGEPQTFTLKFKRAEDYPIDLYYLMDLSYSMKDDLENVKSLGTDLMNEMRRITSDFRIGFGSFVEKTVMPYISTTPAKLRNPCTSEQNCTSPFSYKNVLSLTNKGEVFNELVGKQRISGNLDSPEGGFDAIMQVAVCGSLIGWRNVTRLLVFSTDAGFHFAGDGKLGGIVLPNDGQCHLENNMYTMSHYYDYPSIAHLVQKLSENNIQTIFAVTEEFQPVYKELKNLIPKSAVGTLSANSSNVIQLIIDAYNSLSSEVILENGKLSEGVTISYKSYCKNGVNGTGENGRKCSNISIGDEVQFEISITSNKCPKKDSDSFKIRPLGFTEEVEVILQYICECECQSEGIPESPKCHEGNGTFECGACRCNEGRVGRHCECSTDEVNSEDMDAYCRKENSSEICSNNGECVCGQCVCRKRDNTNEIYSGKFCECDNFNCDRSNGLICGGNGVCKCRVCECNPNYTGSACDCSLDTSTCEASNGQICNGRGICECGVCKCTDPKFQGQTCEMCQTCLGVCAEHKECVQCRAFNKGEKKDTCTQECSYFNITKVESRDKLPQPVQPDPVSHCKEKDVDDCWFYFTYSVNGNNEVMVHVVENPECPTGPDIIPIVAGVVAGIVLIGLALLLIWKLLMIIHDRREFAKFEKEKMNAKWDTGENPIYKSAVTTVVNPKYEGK
UniProt P17301, 30-1181 limits assumed: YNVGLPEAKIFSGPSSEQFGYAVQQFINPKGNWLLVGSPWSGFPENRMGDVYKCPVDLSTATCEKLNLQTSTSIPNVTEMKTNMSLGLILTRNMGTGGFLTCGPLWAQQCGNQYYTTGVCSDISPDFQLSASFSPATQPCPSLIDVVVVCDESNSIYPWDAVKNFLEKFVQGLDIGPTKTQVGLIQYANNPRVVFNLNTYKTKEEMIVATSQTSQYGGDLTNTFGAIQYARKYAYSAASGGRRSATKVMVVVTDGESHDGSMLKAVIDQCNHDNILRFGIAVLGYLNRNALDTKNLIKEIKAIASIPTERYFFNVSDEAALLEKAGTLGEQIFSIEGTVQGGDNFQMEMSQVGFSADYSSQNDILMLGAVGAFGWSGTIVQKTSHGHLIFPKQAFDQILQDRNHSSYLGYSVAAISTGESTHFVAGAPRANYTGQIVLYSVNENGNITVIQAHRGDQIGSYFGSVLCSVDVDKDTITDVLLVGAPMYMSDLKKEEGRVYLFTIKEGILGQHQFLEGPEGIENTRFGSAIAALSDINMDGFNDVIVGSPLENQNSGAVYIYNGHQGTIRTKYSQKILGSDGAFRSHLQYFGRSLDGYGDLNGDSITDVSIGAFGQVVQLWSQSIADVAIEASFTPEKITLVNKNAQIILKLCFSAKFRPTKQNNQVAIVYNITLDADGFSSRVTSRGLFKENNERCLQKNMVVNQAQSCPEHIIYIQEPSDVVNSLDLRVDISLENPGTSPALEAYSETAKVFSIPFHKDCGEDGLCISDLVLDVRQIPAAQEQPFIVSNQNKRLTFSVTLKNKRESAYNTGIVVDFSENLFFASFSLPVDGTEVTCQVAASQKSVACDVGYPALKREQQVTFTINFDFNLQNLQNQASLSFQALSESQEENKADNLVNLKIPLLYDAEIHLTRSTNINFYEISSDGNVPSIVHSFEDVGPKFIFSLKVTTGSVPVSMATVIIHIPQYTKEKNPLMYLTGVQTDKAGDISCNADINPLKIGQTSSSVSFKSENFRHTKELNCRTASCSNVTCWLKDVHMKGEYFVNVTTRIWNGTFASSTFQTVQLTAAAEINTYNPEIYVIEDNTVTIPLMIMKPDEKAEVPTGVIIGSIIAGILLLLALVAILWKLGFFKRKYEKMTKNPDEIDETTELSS
UniProt Q9Y2R2, whole entry, looked up: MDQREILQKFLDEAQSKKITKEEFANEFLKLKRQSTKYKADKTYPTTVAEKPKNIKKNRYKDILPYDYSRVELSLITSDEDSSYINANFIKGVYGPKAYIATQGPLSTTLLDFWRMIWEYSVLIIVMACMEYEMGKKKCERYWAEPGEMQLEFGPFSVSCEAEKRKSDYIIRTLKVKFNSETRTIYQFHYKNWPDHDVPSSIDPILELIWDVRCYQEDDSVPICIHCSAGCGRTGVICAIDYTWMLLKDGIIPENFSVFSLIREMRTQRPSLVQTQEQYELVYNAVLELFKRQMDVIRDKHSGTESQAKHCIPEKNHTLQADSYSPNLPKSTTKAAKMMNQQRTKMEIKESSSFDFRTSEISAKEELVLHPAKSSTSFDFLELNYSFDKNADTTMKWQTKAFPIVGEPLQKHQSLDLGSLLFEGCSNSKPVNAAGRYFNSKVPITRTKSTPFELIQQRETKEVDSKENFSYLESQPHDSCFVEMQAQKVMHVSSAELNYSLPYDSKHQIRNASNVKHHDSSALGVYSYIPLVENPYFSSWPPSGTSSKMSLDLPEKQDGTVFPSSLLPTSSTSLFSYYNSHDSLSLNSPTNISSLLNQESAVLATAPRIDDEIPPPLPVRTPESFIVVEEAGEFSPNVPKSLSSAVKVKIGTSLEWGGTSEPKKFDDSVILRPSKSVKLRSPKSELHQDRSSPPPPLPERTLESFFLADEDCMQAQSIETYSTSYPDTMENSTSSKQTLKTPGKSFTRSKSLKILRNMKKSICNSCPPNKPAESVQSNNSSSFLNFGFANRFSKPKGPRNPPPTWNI
UniProt P09483, 31-630 limits assumed: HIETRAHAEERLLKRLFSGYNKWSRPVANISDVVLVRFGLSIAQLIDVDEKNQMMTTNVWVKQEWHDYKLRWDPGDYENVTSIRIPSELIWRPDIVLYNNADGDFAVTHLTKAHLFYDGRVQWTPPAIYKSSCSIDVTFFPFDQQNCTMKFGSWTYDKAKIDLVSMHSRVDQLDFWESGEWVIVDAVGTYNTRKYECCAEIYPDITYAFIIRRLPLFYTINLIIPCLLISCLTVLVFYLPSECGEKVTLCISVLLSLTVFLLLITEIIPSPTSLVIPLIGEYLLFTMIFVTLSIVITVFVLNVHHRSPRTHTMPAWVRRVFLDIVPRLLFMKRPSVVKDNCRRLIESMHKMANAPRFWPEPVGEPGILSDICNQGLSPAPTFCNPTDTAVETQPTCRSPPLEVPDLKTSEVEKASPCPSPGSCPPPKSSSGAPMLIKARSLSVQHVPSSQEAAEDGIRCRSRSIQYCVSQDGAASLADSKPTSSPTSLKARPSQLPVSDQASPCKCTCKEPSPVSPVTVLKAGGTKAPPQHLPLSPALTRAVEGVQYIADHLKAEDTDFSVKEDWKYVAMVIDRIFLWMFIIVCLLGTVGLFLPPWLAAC
UniProt P12392, 21-495 limits assumed: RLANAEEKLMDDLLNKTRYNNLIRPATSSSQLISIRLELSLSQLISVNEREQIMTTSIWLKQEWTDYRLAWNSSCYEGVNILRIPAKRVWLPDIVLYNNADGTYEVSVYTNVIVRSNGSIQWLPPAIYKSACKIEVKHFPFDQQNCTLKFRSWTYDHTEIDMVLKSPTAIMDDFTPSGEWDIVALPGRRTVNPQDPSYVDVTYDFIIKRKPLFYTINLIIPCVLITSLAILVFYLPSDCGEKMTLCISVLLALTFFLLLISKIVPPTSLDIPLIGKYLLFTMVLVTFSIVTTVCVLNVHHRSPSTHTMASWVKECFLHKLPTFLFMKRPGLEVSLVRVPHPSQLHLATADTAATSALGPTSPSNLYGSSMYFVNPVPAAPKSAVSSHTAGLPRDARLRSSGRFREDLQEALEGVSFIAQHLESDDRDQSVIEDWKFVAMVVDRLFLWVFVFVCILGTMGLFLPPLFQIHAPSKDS
UniProt O07911, 1-430: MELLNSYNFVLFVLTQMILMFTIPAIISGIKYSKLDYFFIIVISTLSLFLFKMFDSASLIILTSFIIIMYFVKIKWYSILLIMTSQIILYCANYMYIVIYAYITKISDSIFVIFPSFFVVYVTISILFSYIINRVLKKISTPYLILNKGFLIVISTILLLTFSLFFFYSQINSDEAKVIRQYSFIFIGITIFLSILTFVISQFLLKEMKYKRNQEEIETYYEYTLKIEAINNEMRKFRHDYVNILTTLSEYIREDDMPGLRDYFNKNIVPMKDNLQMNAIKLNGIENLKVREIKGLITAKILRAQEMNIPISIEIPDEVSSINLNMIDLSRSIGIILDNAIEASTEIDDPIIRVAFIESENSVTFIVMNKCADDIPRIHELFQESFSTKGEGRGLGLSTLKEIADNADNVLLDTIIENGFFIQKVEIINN

| SMILES | target or system | assay | test system | setting | endpoint | result |
| --- | --- | --- | --- | --- | --- | --- |
| N=C(N)c1ccc(C(NC(=O)COCC(=O)NCCCOCCOCCOCCCNC(=O)CCCC[C@@H]2SC[C@@H]3NC(=O)N[C@@H]32)P(=O)(Oc2ccccc2)Oc2ccccc2)cc1 (stereo partly drawn) | Suppressor of tumorigenicity 14 protein (ST14, Homo sapiens, UniProt Q9Y5Y6, F708A) | enzyme activity, inhibitor | – | 4 h preincubation | IC50 | 1.5 ± 0.04 µM |
| COc1ccc(NC(=O)C2C3CCC(O3)C2C(=O)O)c(OC)c1 (stereo not drawn) | Serine/threonine-protein phosphatase 5 (Homo sapiens, UniProt P53041) | inhibitor, fluorescence | – | together with: DiFMUP substrate | IC50 | 4.16 ± 0.2 µM |
| CCOC(=O)c1c(-c2ccc(Cl)cc2Cl)n(-c2nc(-c3ccc(Cl)cc3)c3c(NC(=O)c4ccccc4)nnc-3[nH]2)[nH]c1=O | 786-0 | SRB | – | 5-dose | CC50 | 5.7 µM |
| Fc1ccc(Nc2nc3nonc3nc2Nc2cccc(C(F)(F)F)c2)cc1 | Protein disulfide-isomerase (P4HB, Homo sapiens, UniProt P07237) | – | – | – | IC50 | 292 µM |
| Cc1nn(-c2ccc(Cl)cc2)c2c1C(c1cccc(Cl)c1Cl)C(C#N)=C(N)O2 (stereo not drawn) | Vero E6 | MTT | – | 100 µM | viability | 47.7% |
| Cc1cn([C@@H]2CC[C@H](OC(C(=O)O)P(=O)(O)O)C2)c(=O)[nH]c1=O (relative stereo) | DNA polymerase catalytic subunit (Varicella-zoster virus, UniProt P09252) | enzyme activity, inhibitor | – | together with: poly(dA)·oligo(dT) | IC50 | 38 ± 16 µM |
| COC(=O)c1cc(Cl)ccc1NC(=O)CSc1ncc(S(=O)(=O)c2ccc(Br)cc2)c(=O)[nH]1 | Genome polyprotein, envelope domains I-II (Dengue virus type 2, UniProt P14340) | – | – | – | IC50 | 4.3 µM |
| N#Cc1c(-c2ccc(Cl)cc2Cl)n(-c2nc(-c3ccc(Cl)cc3)c3c(NC(=O)c4ccccc4)nnc-3[nH]2)[nH]c1=O | SK-MEL-28 | SRB | – | – | CC50 | > 100 µM |
| C[C@@H]1NC(=O)[C@H](CCC(=O)O)NC(=O)CNC(=O)[C@H](CC(=O)O)NC(=O)CNC(=O)[C@H](CCCCN)NC(=O)[C@@H](Cc2ccc(O)cc2)NC1=O [isotope labelled] | Integrin alpha2/beta1 (Homo sapiens, UniProt P05556+P17301) | binding, competitive cell binding | CL1-5 | 1 h, pH 7.4, room temperature, together with: 68Ga-DOTA-A2B1 | IC50 | 4.23 ± 0.25 µM |
| O=S1(=O)CCC(NC(=S)SSC(=S)NC2CCS(=O)(=O)C2)C1 (stereo not drawn) | Tyrosine-protein phosphatase non-receptor type 22 (PTPN22, Homo sapiens, UniProt Q9Y2R2) | phosphatase activity, inhibitor | – | pH 6.5, enzyme 5 nM, together with: DiFMUP 1.5 µM | IC50 | 13 ± 1 µM |
| Cc1nn(-c2ccc(Cl)cc2)c2c1C(c1cc(Cl)ccc1Cl)C(C#N)=C(N)O2 (stereo not drawn) | Vero E6 | – | – | 6.3 µM | viability | 72.1% |
| O=C(Nc1cccc(C2=NCCN2)c1)c1ccc(-c2ccc(C(=O)Nc3cccc(C4=NCCN4)c3)cc2)cc1 | Trypanosoma brucei brucei | – | Lister 427, BALB/c mice | ip, 4 days | lowest effective dose | ~3 mg/kg |
| CN1CCN(C(c2ccccn2)c2cc(Cl)c3cccnc3c2O)CC1 (stereo not drawn) | Serine/threonine-protein phosphatase PP1-alpha catalytic subunit (PPP1CA, Homo sapiens, UniProt P62136) | phosphatase activity, inhibitor | – | preincubation ~10 min at 23 °C, together with: radiolabelled phosphorylase A | IC50 | 4.9 ± 0.2 µM |
| O=C(CSc1nccn1C1CCCCC1)Nc1cc(C(F)(F)F)ccc1Cl | Dihydroorotate dehydrogenase (quinone), mitochondrial (PFF0160c, Plasmodium falciparum, UniProt Q08210) | enzyme activity, inhibitor, DCIP colorimetric | – | – | IC50 | 0.701 ± 0.14 µM |
| Cc1cc(I)cc(C)c1Oc1ccnc(Nc2ccc(C#N)cc2)n1 | Gag-Pol polyprotein, reverse transcriptase (gag-pol, Human immunodeficiency virus 1, UniProt P03366) | dTTP incorporation (correct pair), inhibitor | – | 15 min, 37 °C, together with: dNTP 5 µM | IC50 | 0.013 µM |
| CC[C@H](C)[C@@H]1NC(=O)[C@H](CCC(=O)O)NC(=O)[C@@H]2CCCN2C(=O)[C@H](Cc2c[nH]cn2)NC(=O)[C@H](CCCNC(=N)N)NC(=O)[C@H](C(C)C)NC(=O)[C@H](CC(N)=O)NC(=O)[C@@H]2CSSC[C@H](NC(=O)CN)C(=O)N[C@@H](CSSC[C@@H](C(N)=O)NC1=O)C(=O)N[C@@H](CO)C(=O)N[C@@H](Cc1c[nH]cn1)C(=O)N1CCC[C@H]1C(=O)N[C@@H](C(C)C)C(=O)N2 | Neuronal acetylcholine receptor; alpha4/beta4 (Rattus norvegicus, UniProt P09483+P12392) | ion current, antagonist, two-electrode voltage clamp | Xenopus oocytes | rat, together with: ACh 300 µM | IC50 | > 10 µM |
| COP(=O)(OC)Oc1ccc([N+](=O)[O-])cc1Cl | Acetylcholinesterase (Ache, Rattus norvegicus, UniProt P37136) | enzyme activity, inhibitor | rat, postnatal day 1, rat brain homogenate | 15 min, 37 °C | IC50 | 0.175 µM |
| CC(C)C[C@@H]1NC(=O)[C@H](CO)NC(=O)[C@H](CO)NC(=O)[C@@H](NC(=O)CCc2cn(CCOCCOCCOCCOCCOCCOCCOCCO)nn2)CSC(=O)[C@H](Cc2ccccc2)NC1=O | Receptor-histidine kinase AgrC (agrC, Staphylococcus aureus, UniProt O07911) | Agr quorum sensing, antagonist, fluorescence reporter | Staphylococcus aureus, agr-deleted reporter strain, solution | together with: AIP-I 100 nM | IC50 | 3.1 µM |

Some of these lines once more:
| SMILES | target or system | assay | test system | setting | endpoint | result |
| --- | --- | --- | --- | --- | --- | --- |
| O=C(CSc1nccn1C1CCCCC1)Nc1cc(C(F)(F)F)ccc1Cl | Dihydroorotate dehydrogenase (quinone), mitochondrial (PFF0160c, Plasmodium falciparum, UniProt Q08210) | enzyme activity, inhibitor, DCIP colorimetric | – | – | IC50 | 0.701 ± 0.14 µM |
| CC(C)C[C@@H]1NC(=O)[C@H](CO)NC(=O)[C@H](CO)NC(=O)[C@@H](NC(=O)CCc2cn(CCOCCOCCOCCOCCOCCOCCOCCO)nn2)CSC(=O)[C@H](Cc2ccccc2)NC1=O | Receptor-histidine kinase AgrC (agrC, Staphylococcus aureus, UniProt O07911) | Agr quorum sensing, antagonist, fluorescence reporter | Staphylococcus aureus, agr-deleted reporter strain, solution | together with: AIP-I 100 nM | IC50 | 3.1 µM |
